Experimental data pooled from the literature.
Each numbered part is a random draw from the data of one study; scales do not carry over between parts.
Chain of UniProt P0C1S8 (whole entry, looked up): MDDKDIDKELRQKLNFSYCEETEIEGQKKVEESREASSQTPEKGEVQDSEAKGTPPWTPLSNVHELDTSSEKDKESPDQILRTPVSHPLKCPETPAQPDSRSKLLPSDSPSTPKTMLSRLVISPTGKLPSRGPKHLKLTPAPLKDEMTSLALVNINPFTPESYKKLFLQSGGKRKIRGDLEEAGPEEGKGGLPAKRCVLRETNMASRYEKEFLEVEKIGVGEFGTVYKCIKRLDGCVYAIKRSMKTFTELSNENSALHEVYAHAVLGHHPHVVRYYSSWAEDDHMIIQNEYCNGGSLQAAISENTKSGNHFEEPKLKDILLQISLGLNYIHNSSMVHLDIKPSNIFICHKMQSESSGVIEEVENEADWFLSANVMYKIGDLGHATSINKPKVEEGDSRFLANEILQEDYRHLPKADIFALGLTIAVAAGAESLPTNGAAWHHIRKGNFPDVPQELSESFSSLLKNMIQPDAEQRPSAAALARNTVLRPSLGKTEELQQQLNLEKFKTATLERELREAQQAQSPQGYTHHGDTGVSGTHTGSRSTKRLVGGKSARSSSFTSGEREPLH
Chain of UniProt Q00532 (whole entry, looked up): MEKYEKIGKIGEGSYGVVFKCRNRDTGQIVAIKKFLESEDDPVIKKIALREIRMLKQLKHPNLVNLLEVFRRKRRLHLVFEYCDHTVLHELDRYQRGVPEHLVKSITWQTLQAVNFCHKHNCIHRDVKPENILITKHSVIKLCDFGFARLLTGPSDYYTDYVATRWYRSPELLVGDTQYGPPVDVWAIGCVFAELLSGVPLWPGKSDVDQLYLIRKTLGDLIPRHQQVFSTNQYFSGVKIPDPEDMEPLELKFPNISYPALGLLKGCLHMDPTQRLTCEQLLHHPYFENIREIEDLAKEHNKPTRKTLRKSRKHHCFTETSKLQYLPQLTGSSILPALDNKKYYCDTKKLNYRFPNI
Chain of UniProt P11309 (whole entry, looked up): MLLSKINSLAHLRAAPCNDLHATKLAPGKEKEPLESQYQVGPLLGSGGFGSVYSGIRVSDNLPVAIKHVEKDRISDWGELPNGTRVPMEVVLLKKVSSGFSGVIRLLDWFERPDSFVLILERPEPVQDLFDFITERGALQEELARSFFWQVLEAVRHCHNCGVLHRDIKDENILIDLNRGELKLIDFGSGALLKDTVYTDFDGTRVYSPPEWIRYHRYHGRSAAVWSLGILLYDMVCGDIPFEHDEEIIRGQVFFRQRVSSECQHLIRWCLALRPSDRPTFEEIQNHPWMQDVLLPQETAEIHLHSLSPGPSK
Chain of UniProt Q9UIK4 (whole entry, looked up): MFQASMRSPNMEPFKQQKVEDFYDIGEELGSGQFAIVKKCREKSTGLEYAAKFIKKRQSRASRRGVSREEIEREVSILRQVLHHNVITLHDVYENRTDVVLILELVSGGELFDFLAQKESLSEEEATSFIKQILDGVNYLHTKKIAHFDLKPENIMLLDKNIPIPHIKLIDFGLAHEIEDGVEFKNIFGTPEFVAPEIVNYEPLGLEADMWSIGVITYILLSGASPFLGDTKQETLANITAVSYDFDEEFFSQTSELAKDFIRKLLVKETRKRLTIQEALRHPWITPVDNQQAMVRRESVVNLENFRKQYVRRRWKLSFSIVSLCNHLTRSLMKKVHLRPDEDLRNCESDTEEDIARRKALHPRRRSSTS
Chain of UniProt Q00536 (whole entry, looked up): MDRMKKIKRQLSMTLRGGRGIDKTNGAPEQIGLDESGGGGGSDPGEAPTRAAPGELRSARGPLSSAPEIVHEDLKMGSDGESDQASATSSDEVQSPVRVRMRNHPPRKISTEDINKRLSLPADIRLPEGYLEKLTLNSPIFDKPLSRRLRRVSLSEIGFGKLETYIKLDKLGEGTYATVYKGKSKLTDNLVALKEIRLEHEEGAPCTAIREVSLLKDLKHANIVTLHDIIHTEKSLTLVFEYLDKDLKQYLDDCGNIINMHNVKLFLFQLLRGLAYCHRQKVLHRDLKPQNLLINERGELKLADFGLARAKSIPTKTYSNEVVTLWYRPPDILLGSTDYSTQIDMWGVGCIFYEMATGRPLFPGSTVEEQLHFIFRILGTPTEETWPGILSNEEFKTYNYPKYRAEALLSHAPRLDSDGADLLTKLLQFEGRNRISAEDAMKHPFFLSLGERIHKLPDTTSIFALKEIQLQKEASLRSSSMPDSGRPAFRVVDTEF
Chain of UniProt P09769 (whole entry, looked up): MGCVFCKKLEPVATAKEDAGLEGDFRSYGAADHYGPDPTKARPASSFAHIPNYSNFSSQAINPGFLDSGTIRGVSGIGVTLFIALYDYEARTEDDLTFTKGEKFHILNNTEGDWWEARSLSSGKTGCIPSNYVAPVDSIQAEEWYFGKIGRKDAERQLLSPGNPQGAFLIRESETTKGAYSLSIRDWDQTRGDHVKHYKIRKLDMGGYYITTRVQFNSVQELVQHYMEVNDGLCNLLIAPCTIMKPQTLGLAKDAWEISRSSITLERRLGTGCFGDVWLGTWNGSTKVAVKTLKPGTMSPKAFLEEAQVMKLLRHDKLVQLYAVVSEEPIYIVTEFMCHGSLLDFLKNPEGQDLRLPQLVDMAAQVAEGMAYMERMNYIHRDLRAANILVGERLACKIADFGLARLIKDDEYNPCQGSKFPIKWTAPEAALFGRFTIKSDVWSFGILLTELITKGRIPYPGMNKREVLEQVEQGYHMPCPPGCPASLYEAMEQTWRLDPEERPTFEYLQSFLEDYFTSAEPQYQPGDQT
Chain of UniProt P10721 (whole entry, unmodified, looked up): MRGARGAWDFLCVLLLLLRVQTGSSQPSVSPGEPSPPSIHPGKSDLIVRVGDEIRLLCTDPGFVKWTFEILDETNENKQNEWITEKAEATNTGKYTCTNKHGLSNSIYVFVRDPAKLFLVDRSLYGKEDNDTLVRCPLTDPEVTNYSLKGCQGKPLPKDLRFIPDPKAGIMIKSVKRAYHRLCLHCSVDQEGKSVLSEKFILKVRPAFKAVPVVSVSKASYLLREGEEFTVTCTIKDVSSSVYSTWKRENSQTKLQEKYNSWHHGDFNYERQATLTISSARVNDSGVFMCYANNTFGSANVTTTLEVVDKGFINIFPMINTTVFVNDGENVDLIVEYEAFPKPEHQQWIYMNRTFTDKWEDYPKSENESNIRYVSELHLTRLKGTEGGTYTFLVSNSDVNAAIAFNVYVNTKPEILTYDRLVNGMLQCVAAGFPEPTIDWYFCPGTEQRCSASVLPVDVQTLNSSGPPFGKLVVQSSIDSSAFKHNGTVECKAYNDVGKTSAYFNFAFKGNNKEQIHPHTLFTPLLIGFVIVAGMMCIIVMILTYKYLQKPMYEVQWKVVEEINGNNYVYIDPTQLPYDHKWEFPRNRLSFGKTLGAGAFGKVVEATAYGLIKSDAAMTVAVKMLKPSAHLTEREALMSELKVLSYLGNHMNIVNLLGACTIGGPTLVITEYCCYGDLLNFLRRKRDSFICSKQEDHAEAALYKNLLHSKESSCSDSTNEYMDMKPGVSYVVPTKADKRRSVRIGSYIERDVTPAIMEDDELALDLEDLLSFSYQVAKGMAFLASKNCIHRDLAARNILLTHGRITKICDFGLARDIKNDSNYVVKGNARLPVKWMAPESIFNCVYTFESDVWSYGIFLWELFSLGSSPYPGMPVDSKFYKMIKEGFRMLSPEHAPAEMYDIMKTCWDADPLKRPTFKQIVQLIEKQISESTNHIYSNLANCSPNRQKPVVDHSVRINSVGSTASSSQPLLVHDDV

Sample 1
Target: Dual specificity tyrosine-phosphorylation-regulated kinase 1A (DYRK1A, Homo sapiens, UniProt Q13627)
Effect on: enzyme activity
Action: inhibitor
Concentration: 0.5 µM
Reference: control
Compound	remaining activity
N#C/C(=C\c1ccc(O)c(O)c1)C(=O)NCc1ccccc1	102%
CCOc1nc(NC(=O)Cc2cc(OC)ccc2OC)cc(N)c1C#N	98.5%
CCN(CC)C(=O)c1ccc(Nc2nc(OCC3CCCCC3)c3[nH]cnc3n2)cc1	91.9%
c1ccc(-c2cnc(Nc3ccc(OCCN4CCCC4)cc3)s2)cc1	94.2%
Cc1cn(-c2cc(NC(=O)c3ccc(C)c(Nc4nccc(-c5cccnc5)n4)c3)cc(C(F)(F)F)c2)cn1	102%
O=C1C(Cl)=C(N2C(=O)CCC2=O)C(=O)c2ccccc21	99.1%
c1ccc(-c2[nH]ncc2-c2ccnc3ccccc23)nc1	90.9%
Cc1cc2ncc(-c3ccccc3)nc2cc1C	89.9%
Ic1cccc(CSc2nnc(-c3ccncc3)o2)c1	96.4%
CN([C@@H](Cc1ccc(OS(=O)(=O)c2cccc3cnccc23)cc1)C(=O)N1CCN(c2ccccc2)CC1)S(=O)(=O)c1cccc2cnccc12	102%
O=C(Nc1cccc(Nc2nccc(Nc3cccc(C(F)(F)F)c3)n2)c1)C1CC1	107%

Sample 2
Cell line: HaCaT
Concentration: 100 µM
Time: 18 h
Compound	viability
COc1cc2c(cc1OC)[C@H]1CC(=O)[C@H](CC(C)C)CN1CC2 (racemic)	107%
Cn1nnc2c(C(N)=O)ncn2c1=O	107%
CC(=O)O[C@H]1C[C@@H]2CC[C@@H]3[C@H](CC[C@@]4(C)[C@H]3C[C@H]([N+]3(C)CCCCC3)[C@@H]4OC(C)=O)[C@@]2(C)C[C@@H]1N1CCCCC1	97%
Nc1nc(F)nc2c1ncn2[C@@H]1O[C@H](COP(=O)(O)O)[C@@H](O)[C@@H]1O	99.8%
O=C(O)Cc1ccccc1Nc1c(Cl)cccc1Cl	98%
COc1cc2c(cc1O)[C@@H](Cc1ccc(O)c(Oc3ccc(C[C@@H]4c5cc(OC)c(OC)cc5CCN4C)cc3)c1)N(C)CC2	21.7%
C[C@@](Cc1ccc(O)c(O)c1)(NN)C(=O)O	110%

Sample 3
Compound: O=C(NCc1ncc(C(F)(F)F)cc1Cl)c1ccc2c(c1)C1(CCS(=O)(=O)CC1)[C@@H](C1CC1)N2S(=O)(=O)c1ccc(F)cc1
Effect on: cell-free assay
Technique: competition with immobilised ligand
Concentration: 1 µM
target	remaining binding
Wee1-like protein kinase 2 (WEE2, Homo sapiens, UniProt P0C1S8)	100%
Mast/stem cell growth factor receptor Kit (KIT, Homo sapiens, UniProt P10721, T670I/V559D)	87%
Serine/threonine-protein kinase pim-1 (PIM1, Homo sapiens, UniProt P11309)	74%
Tyrosine-protein kinase Fgr (FGR, Homo sapiens, UniProt P09769)	93%
cAMP-dependent protein kinase catalytic subunit beta (PRKACB, Homo sapiens, UniProt P22694)	85%
Serine/threonine-protein kinase 33 (STK33, Homo sapiens, UniProt Q9BYT3)	86%
Cyclin-dependent kinase-like 1 (CDKL1, Homo sapiens, UniProt Q00532)	100%
Uncharacterized serine/threonine-protein kinase SBK3 (SBK3, Homo sapiens, UniProt P0C264)	100%
Cyclin-dependent kinase 16 (CDK16, Homo sapiens, UniProt Q00536)	80%
Vascular endothelial growth factor receptor 2 (KDR, Homo sapiens, UniProt P35968)	80%
Epidermal growth factor receptor (EGFR, Homo sapiens, UniProt P00533)	100%
Death-associated protein kinase 2 (DAPK2, Homo sapiens, UniProt Q9UIK4)	90%

Further values, each from its own experiment
SMILES	technique	pH	quantity	result
c1ccc(Oc2ccc(Nc3c4c(nc5ccccc35)CCC4)cc2)cc1	HPLC retention	pH 7.4	logD	> 5.3
